# Experimental data of several laboratories.
# Protocols differ between the studies behind these lines. ± gives the spread as reported.
# EPHA2: Ephrin type-A receptor 2 (EPHA2, Homo sapiens, UniProt P29317)
# Chain of UniProt P29317 (whole entry, looked up): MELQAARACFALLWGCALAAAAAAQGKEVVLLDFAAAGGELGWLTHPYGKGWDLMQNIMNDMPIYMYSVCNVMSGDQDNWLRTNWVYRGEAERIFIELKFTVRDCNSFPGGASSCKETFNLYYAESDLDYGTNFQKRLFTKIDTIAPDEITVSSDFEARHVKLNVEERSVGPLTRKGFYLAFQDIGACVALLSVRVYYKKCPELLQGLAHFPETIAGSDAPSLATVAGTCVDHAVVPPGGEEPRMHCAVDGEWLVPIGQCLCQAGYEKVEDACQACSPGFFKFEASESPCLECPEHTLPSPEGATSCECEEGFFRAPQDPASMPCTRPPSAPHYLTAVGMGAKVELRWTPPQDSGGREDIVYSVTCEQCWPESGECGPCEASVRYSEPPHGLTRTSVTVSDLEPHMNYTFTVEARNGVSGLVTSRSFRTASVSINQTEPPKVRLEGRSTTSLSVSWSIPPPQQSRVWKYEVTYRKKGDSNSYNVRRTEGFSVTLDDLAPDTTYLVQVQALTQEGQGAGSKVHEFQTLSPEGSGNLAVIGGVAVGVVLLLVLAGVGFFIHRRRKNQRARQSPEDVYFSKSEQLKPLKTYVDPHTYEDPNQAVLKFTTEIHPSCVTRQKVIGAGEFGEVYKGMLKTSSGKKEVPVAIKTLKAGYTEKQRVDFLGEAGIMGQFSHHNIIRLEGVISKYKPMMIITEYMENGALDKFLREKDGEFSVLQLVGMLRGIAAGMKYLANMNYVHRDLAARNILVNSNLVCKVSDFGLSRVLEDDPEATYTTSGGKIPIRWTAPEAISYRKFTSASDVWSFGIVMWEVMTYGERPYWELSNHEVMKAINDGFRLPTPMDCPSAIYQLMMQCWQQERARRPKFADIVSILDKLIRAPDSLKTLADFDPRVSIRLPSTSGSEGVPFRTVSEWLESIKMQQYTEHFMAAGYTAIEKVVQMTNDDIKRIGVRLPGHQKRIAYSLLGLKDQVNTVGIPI
# MAP3K15: Mitogen-activated protein kinase kinase kinase 15 (MAP3K15, Homo sapiens, UniProt Q6ZN16)
# Chain of UniProt Q6ZN16 (whole entry, looked up): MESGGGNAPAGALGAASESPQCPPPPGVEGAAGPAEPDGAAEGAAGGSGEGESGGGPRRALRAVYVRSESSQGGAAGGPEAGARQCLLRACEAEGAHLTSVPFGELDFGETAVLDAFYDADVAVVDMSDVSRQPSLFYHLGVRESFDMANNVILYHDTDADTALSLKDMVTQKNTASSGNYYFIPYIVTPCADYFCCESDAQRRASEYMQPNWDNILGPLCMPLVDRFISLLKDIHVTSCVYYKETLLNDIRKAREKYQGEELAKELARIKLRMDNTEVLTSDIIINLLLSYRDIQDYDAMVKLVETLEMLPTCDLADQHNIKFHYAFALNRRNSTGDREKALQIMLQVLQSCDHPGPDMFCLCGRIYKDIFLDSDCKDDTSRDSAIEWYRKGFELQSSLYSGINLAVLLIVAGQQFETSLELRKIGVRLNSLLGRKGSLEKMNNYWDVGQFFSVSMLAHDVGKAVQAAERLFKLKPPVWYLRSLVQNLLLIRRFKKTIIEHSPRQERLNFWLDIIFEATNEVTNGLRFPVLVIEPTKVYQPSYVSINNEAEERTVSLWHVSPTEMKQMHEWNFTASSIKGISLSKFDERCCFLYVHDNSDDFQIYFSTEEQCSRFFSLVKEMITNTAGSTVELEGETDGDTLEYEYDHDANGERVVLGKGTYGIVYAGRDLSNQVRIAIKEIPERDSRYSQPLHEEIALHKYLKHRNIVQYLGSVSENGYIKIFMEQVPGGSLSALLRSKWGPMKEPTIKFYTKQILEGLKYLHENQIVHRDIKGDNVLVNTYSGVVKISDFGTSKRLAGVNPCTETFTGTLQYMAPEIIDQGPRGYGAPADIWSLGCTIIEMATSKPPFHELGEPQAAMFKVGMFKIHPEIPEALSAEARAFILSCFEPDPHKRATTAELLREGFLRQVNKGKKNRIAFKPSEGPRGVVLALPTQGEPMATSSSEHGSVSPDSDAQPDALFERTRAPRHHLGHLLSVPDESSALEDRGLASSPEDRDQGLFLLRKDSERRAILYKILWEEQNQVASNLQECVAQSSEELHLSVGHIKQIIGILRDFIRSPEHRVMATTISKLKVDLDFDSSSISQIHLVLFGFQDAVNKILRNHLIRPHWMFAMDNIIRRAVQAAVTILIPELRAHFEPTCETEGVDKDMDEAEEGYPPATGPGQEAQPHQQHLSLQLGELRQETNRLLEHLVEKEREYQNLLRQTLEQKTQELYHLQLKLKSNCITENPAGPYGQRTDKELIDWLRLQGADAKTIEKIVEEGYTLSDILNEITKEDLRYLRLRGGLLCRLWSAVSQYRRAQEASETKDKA
# MPO: Myeloperoxidase (MPO, Homo sapiens, UniProt P05164)
# Chain of UniProt P05164 (whole entry, looked up): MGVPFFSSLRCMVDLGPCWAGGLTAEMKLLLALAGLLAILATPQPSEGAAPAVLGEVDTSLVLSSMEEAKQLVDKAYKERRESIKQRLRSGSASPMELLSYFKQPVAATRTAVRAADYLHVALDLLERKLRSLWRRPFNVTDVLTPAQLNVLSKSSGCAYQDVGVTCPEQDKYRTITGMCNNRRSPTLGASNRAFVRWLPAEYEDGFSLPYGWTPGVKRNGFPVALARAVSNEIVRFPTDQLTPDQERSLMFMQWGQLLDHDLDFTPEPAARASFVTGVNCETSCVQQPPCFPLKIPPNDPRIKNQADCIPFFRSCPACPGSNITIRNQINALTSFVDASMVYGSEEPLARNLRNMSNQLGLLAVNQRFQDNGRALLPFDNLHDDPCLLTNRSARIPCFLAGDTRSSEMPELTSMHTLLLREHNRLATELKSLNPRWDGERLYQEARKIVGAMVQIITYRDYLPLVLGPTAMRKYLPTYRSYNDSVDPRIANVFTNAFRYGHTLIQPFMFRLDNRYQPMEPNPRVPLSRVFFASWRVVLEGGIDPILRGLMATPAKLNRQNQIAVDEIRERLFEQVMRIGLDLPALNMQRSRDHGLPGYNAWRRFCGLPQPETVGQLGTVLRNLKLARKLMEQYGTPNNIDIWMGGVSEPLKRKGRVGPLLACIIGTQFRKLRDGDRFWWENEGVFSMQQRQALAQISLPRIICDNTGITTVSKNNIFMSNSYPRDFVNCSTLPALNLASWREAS
# P2RX7: P2X purinoceptor 7 (P2RX7, Homo sapiens, UniProt Q99572)
# Chain of UniProt Q99572 (whole entry, unmodified, looked up): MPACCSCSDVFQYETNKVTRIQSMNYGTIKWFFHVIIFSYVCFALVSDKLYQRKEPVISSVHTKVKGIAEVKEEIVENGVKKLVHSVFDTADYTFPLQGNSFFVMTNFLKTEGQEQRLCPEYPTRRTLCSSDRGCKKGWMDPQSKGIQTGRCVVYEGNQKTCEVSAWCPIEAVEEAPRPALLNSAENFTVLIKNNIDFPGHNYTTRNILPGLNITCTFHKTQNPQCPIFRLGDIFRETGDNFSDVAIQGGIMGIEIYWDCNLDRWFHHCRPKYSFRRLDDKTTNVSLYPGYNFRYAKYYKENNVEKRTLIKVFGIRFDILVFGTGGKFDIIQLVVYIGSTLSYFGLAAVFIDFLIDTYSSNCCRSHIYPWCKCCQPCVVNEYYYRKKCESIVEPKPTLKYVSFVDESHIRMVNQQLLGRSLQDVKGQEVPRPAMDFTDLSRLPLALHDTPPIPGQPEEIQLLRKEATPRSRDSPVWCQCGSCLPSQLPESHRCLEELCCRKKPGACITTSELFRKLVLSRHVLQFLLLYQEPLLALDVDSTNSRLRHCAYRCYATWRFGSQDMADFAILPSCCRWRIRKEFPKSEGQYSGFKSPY
# MAP3K3: Mitogen-activated protein kinase kinase kinase 3 (MAP3K3, Homo sapiens, UniProt Q99759)
# Chain of UniProt Q99759 (whole entry, looked up): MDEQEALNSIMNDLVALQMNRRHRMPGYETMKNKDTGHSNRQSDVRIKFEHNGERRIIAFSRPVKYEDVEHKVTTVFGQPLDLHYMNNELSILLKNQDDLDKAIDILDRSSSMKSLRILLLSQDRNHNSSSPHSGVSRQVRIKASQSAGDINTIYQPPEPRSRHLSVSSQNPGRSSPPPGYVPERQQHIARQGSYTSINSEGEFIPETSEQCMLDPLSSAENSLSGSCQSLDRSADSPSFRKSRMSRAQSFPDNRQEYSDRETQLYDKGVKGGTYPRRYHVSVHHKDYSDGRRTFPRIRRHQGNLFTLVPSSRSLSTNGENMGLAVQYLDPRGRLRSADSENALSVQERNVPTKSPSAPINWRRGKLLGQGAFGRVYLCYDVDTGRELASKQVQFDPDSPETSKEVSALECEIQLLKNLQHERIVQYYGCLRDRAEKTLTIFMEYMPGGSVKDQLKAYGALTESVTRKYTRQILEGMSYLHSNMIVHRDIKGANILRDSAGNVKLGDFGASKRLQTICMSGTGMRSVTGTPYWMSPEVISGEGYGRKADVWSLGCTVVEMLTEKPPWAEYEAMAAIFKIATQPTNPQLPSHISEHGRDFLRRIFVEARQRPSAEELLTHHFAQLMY
# CDK5 with p25: Cyclin-dependent kinase 5, with p25 (CDK5, Homo sapiens, UniProt Q00535)
# Chain of UniProt Q00535 (whole entry, looked up): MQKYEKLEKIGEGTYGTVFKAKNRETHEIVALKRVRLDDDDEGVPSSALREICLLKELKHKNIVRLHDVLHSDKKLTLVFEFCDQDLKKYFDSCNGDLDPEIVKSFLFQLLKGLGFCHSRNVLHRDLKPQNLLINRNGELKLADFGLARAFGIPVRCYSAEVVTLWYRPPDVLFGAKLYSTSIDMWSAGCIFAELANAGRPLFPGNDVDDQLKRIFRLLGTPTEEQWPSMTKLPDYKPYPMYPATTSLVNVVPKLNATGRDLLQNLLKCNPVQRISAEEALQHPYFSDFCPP
# Chain of UniProt P45983 (whole entry, looked up): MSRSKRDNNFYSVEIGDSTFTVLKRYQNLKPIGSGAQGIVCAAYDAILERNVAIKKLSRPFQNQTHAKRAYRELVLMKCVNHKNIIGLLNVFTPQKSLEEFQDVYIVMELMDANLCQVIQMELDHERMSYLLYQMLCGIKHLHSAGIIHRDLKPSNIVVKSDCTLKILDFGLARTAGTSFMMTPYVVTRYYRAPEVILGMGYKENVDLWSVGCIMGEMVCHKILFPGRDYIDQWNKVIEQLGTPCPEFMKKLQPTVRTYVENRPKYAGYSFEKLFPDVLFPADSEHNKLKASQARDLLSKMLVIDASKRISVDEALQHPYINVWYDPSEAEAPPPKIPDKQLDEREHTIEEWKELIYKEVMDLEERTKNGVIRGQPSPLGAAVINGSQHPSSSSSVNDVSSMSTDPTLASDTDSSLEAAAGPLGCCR
SMILES,target,assay,system,conditions,scale,remaining activity
O=C(O)c1ccc(Nc2ncc3c(n2)-c2ccc(Cl)cc2C(c2c(F)cccc2F)=NC3)cc1,LOK(h),kinase activity,,1 µM,,95%
O=C1NC(=O)/C(=C/c2ccc(-c3ccc(F)cc3O)o2)S1,EPHA2,enzyme activity,,10 µM,,51%
COc1cc(-c2cncc3c2CN(C)Cc2cc(N4CCNCC4)ccc2-3)cc(OC)c1OC,"SNRK (Homo sapiens, UniProt Q9NRH2)",kinase activity,,"1 µM, human enzyme, with: ATP 10 µM",reference: DMSO control,118%
CNc1ncc2c(/C=C/C(=O)N3CCC(OC)CC3)nn(Cc3cccc(C(F)(F)F)c3)c2n1,EPHA2,"kinase activity, inhibitor",,1 µM,reference: untreated control,104%
COc1cc(F)ccc1-c1ncnc(Nc2cccc(C[S@](C)(=N)=O)c2)n1,"NTRK2 (Homo sapiens, UniProt Q16620)",kinase activity,,"10 µM, with: 10 µM ATP",,41%
O=C(NC1CCC1)c1ccc2nc(-c3cccc(NS(=O)(=O)NCCN4CCCCC4)c3)cn2c1,MAP3K15,enzyme activity,,10 µM,,79%
NC/C(=C\F)COc1cccc(Cn2c(=S)[nH]c(=O)c3[nH]cnc32)c1,MPO,"LDL lipid peroxidation, inhibitor, cholesteryl ester hydroperoxide",,0.0185 µM,,45.9%
COc1ccc2cc3[n+](cc2c1OC)CCc1cc2c(cc1-3)OCO2,P2RX7,"ATP-evoked current, inhibitor, whole-cell patch clamp",HEK293 transfected,10 µM,,60.2%
COc1ccc(F)cc1C(=O)NCc1ccc(-c2nn([C@@H](C)C(F)(F)F)c(N)c2C(N)=O)cc1,MAP3K3,"kinase activity, inhibitor, HotSpot radiometric",,"100 nM, with: ATP 10 µM",,81.8 ± 0.2%
Cc1cc(Nc2cc(N3CCN(C)CC3)nc(Sc3ccc(NC(=O)C4CC4)cc3)n2)[nH]n1,CDK5 with p25,"kinase activity, KinaseProfiler",,"0.03 µM, species human",reference: control,104%
C=CC[C@H]1c2ccc(OC)c(OC)c2CN2CCc3cc4c(cc3[C@@H]12)OCO4,P2RX7,"ATP-evoked current, inhibitor, whole-cell patch clamp",HEK293 transfected,0.3 µM,,98.4%
COc1cc(N2CCN(C)CC2)ccc1Nc1nc(N)n(C(=S)NCc2c(Cl)cccc2Cl)n1,MAP3K15,enzyme activity,,10 µM,reference: control,6%
COc1ccc(Cl)cc1-c1cc(=O)[nH]c(=S)n1CC(N)=O,MPO,,,"5 µM, 0.1 h",,7.74%
Cc1cc(NC(=O)c2cccc(NC(=O)/C=C/CN(C)C)c2)ccc1Nc1nccc(-c2cccnc2)n1,"MAPK8 (Homo sapiens, UniProt P45983)","enzyme activity, inhibitor",,"0.02032 µM, 18 h, unit not given, with: GSH 10 mM pre-incubation",reference: vehicle,0.974
COc1cc(Nc2ncc3c(n2)-c2ccc(Cl)cc2C(c2c(F)cccc2OC)=NC3)ccc1C(=O)O,MST4,kinase activity,,1 µM,,100%
C=CC(=O)N1CCC[C@@H](n2nc(-c3ccc(Oc4ccccc4)cc3)c3c(N)ncnc32)C1,MAP3K3,"kinase activity, inhibitor, HotSpot radiometric",,"100 nM, with: ATP 10 µM",,83.3 ± 0.2%
CC(C)(C)c1nc(-c2cccc(NS(=O)(=O)c3c(F)cccc3F)c2F)c(-c2ccnc(N)n2)s1,CDK5 with p25,"kinase activity, radiometric 33PanQinase",,1 µM,reference: DMSO,98%
CC#CC(=O)N1CCC[C@H]1c1nc(-c2ccc(C(=O)Nc3ccccn3)cc2)c2c(N)nccn12,CDK5 with p25,"kinase activity, inhibitor, HotSpot radiometric",,"100 nM, with: ATP 10 µM",,89.5 ± 1.4%
C=CC(=O)N1CCC[C@@H](n2nc(-c3ccc(Oc4ccccc4)cc3)c3c(N)ncnc32)C1,"PRKCA (Homo sapiens, UniProt P17252)",,,0.1 µM,,143%
COc1cc(N2CCN(C)CC2)ccc1Nc1nc(N)n(C(=O)NCc2c(Cl)cccc2Cl)n1,"Ribosomal protein S6 kinase alpha-4, C-terminal kinase domain (RPS6KA4, Homo sapiens, UniProt O75676)",enzyme activity,,10 µM,reference: control,2.1%
C=CC(=O)N1CCC([C@@H]2CCNc3c(C(N)=O)c(-c4ccc(Oc5ccccc5)cc4)nn32)CC1,MAP3K3,"kinase activity, inhibitor, HotSpot radiometric",,"100 nM, with: ATP 10 µM",,69.6 ± 1%
Oc1cc(O)c2c(c1)OC(c1cc(O)c(O)c(O)c1)C(O)C2 (stereo not shown),"Procathepsin L (CTSL, Homo sapiens, UniProt P07711)","enzyme activity, inhibitor",,"100 µM, with: Z-FR-AFC",,95.6%

# For quick reference, copied from above:
SMILES,target,assay,system,conditions,scale,remaining activity
CNc1ncc2c(/C=C/C(=O)N3CCC(OC)CC3)nn(Cc3cccc(C(F)(F)F)c3)c2n1,EPHA2,"kinase activity, inhibitor",,1 µM,reference: untreated control,104%
Cc1cc(Nc2cc(N3CCN(C)CC3)nc(Sc3ccc(NC(=O)C4CC4)cc3)n2)[nH]n1,CDK5 with p25,"kinase activity, KinaseProfiler",,"0.03 µM, species human",reference: control,104%
C=CC(=O)N1CCC([C@@H]2CCNc3c(C(N)=O)c(-c4ccc(Oc5ccccc5)cc4)nn32)CC1,MAP3K3,"kinase activity, inhibitor, HotSpot radiometric",,"100 nM, with: ATP 10 µM",,69.6 ± 1%
